Results of several laboratories.
Lines come from different studies, so protocols differ. ± marks the error that the study gave.

C=CC(N)CCC(=O)O (stereo not drawn) — AUC(0-inf) (male Sprague-Dawley rat, plasma; oral, 10 mg/kg, formulation 10, together with: Sar 200 mg/kg): 15900 ± 816 ng·h/mL
C#C[C@]1(CO)O[C@@H](n2cnc3c(N)nc(F)nc32)C[C@@H]1O — AUC(0-inf) (human, plasma; oral, 100 mg, single dose, fasted): 11.7 µM·h
CC(C)=CCC[C@](C)(O[C@@H]1O[C@H](CO)[C@@H](O)[C@H](O)[C@H]1O)[C@H]1CC[C@]2(C)[C@@H]1[C@H](O)C[C@@H]1[C@@]3(C)CC[C@H](O)C(C)(C)[C@@H]3[C@@H](O[C@@H]3O[C@H](CO)[C@@H](O)[C@H](O)[C@H]3O[C@@H]3O[C@@H](C)[C@H](O)[C@@H](O)[C@H]3O)C[C@]12C — AUC(0-inf) (Sprague Dawley rat, male, plasma; oral, 45 mg/kg, in frozen ginseng extract): 18300 ± 2700 ng·h/mL
CNc1nc(Nc2ccc(-n3cnc(C)n3)c(OC)c2)nc2c1CC[C@H]2c1ccc(F)cc1 — AUC(0-inf) (human, plasma; oral, 30 mg, single dose, healthy volunteers): 982 ng·h/mL
CC(C)=CCC[C@](C)(O[C@@H]1O[C@H](CO)[C@@H](O)[C@H](O)[C@H]1O)[C@H]1CC[C@]2(C)[C@@H]1[C@H](O)C[C@@H]1[C@@]3(C)CC[C@H](O)C(C)(C)[C@@H]3[C@@H](O[C@@H]3O[C@H](CO)[C@@H](O)[C@H](O)[C@H]3O)C[C@]12C — AUC(0-inf) (Sprague Dawley rat, male, plasma; oral, 25 mg/kg, in red ginseng extract): 4200 ± 1300 ng·h/mL
CO[C@H]1C[C@@H]2CC[C@@H](C)[C@@](O)(O2)C(=O)C(=O)N2CCCC[C@H]2C(=O)O[C@H]([C@H](C)C[C@@H]2CC[C@@H](O)[C@H](OC)C2)CC(=O)[C@H](C)/C=C(\C)[C@@H](O)[C@@H](OC)C(=O)[C@H](C)C[C@H](C)/C=C/C=C/C=C/1C — AUC(0-inf) (human, whole blood; oral, 25 mg, together with: grapefruit juice): 4540 ng·h/mL
O=C1N=C(N2CCOCC2)CN1c1ccc(Cl)cc1 — AUC(0-inf) (beagle dog, male, plasma; oral, 30 mg/kg, tablets, fed): 64500 ng·h/mL
CC(C)=CCC[C@](C)(O[C@@H]1O[C@H](CO[C@@H]2O[C@H](CO)[C@@H](O)[C@H](O)[C@H]2O)[C@@H](O)[C@H](O)[C@H]1O)[C@H]1CC[C@]2(C)[C@@H]1[C@H](O)C[C@@H]1[C@@]3(C)CC[C@H](O[C@@H]4O[C@H](CO)[C@@H](O)[C@H](O)[C@H]4O[C@@H]4O[C@H](CO)[C@@H](O)[C@H](O)[C@H]4O)C(C)(C)[C@@H]3CC[C@]12C — AUC(0-inf) (Sprague Dawley rat, male, plasma; oral, 86 mg/kg, in frozen ginseng extract): 194000 ± 28900 ng·h/mL
CCCC[C@H](NC(C)=O)C(=O)N[C@H]1CCC(=O)NC[C@@H](C(=O)N[C@@H](Cc2c[nH]c3ccccc23)C(N)=O)NC(=O)[C@H](CCCNC(=N)N)NC(=O)[C@@H](Cc2ccccc2)NC(=O)[C@H](Cc2c[nH]cn2)NC1=O — AUC(0-inf) (CD Sprague Dawley rat, male, plasma; subcutaneous, 1.0 mg/kg daily, day 1): 1080 ng·h/mL

Excerpt of the above:
CC(C)=CCC[C@](C)(O[C@@H]1O[C@H](CO[C@@H]2O[C@H](CO)[C@@H](O)[C@H](O)[C@H]2O)[C@@H](O)[C@H](O)[C@H]1O)[C@H]1CC[C@]2(C)[C@@H]1[C@H](O)C[C@@H]1[C@@]3(C)CC[C@H](O[C@@H]4O[C@H](CO)[C@@H](O)[C@H](O)[C@H]4O[C@@H]4O[C@H](CO)[C@@H](O)[C@H](O)[C@H]4O)C(C)(C)[C@@H]3CC[C@]12C — AUC(0-inf) (Sprague Dawley rat, male, plasma; oral, 86 mg/kg, in frozen ginseng extract): 194000 ± 28900 ng·h/mL
